Measurements collected from several papers.
Compare with care: the assays were run in different laboratories. Values joined by “and” are separate records of one study, mostly repeats; a detail may differ. ± marks the error that the study gave. ≈ marks a conversion by molar mass, not a printed value.

`CCCN1C(=O)C(CCC)(C(=O)OCC)Oc2cc(F)ccc21` (centres unmarked) gave an inhibition of 51 ± 3.53% (Eclipta prostrata; fresh weight, greenhouse postemergence; postemergence, 150 g ai/ha, 21 days).
`Cc1cc(N2CCC(C#N)(C3(C)CC3)C2=O)cc(C(=O)NCc2cc(F)cc(-c3cnn(C)c3)c2)n1` (racemic) gave an IC50 of 60 nM (Plasmodium falciparum; parasite growth; compound-resistant Dd2-B2 bulk 1_Bulk_10e5_D1).
The EC50 of `COc1cc(C(SC(C)C)SC(C)C)ccc1OCCNS(=O)(=O)c1cccc(C(F)(F)F)c1` is reported as over 2500 µg/mL (tobacco mosaic virus; curative activity; in vivo plant).
For `OB(O)c1ccc(C(F)(F)F)s1`, the biofilm formation was 28% and 23.9% and 21.5% (Staphylococcus aureus; crystal violet; USA300 wild type; 100 µM; baseline: wild type untreated).
`Cc1cc(C(=O)Nc2nc3cccc(C)c3n2[C@H]2CCCCN(C(=O)/C=C/CN(C)C)C2)ccn1`: “EC50 fold shift” 1.56 fold and 0.82 fold (Trypanosoma brucei; cell growth, Alamar Blue; 2T1 overexpressing Tb927.10.4990; baseline: parental 2T1).
For `CC[C@H](C)[C@H](NC(=O)[C@H](CCCNC(=N)N)NC(=O)[C@H](CO)NC(=O)[C@H](Cc1ccc(O)cc1)NC(=O)[C@@H](NC(=O)[C@@H](NC(=O)[C@H](C)NC(=O)CNC(=O)[C@H](CCCCN)NC(=O)[C@H](CCCCN)NC(=O)CCNC(=O)CCCCCNC(=O)[C@H](CCCNC(=N)N)NC(=O)CCCCCNC(=O)[C@H](CCCNC(=N)N)NC(=O)[C@H](CCCNC(=N)N)NC(=O)CCCCCNC(=O)[C@H](CCCNC(=N)N)NC(=O)[C@H](CCCNC(=N)N)NC(=O)CCCCCNC(=O)[C@H](CCCNC(=N)N)NC(=O)[C@H](CCCNC(=N)N)NC(=O)CCCCCNC(=O)[C@@H](N)CCCNC(=N)N)C(C)C)[C@@H](C)O)C(=O)N[C@@H](CO)C(=O)NCC(=O)N[C@@H](CCC(N)=O)C(=O)N[C@@H](Cc1ccc(O)cc1)C(=O)N[C@@H](CCCCN)C(=O)O`, “minimum biofilm inhibitory concentration” read 6 µM (Escherichia coli; crystal violet; ATCC 25922).
Under “MIC fold change”, `CC[C@H](C)CCCCC(=O)N[C@@H](CCN)C(=O)N[C@H](C(=O)N[C@@H](CCN)C(=O)N[C@H]1CCNC(=O)[C@H]([C@@H](C)O)NC(=O)[C@H](CCN)NC(=O)[C@H](CCN)NC(=O)[C@H](CC(C)C)NC(=O)[C@@H](CC(C)C)NC(=O)[C@H](CCN)NC1=O)[C@@H](C)O` is recorded as 2.68 (Escherichia coli; daily serial passaging; ATCC 8739; highest sub-MIC, 12 days; baseline: initial MIC).
The EC50 of `CCCCSC(SCCCC)c1ccc(OCCNS(=O)(=O)c2c(F)cccc2F)c(OC)c1` is reported as 407.5 ± 2.6 µg/mL (Tobacco mosaic virus; protective activity; plant in vivo).
`CCOC(=O)C1(CC#N)Oc2cc(F)ccc2N(CC#N)C1=O` (centres unmarked) has an inhibition of 40 ± 1.49% (Echinochloa crus-galli; fresh weight, greenhouse postemergence; postemergence, 150 g ai/ha, 21 days).
With `Cc1ccc(S(=O)(=O)NCCOc2ccc(C(SC(C)C)SC(C)C)cc2Cl)cc1` the EC50 was over 2500 µg/mL (tobacco mosaic virus; curative activity; in vivo plant).
For `C[N+]1=C2C(c3ccccc3)=[N+]([O-])c3ccccc3N2CCC1`, the MIC90 was 8 µg/mL (Prevotella spp.; bacterial growth).
`CN(C(=O)c1ccn2ncc(-c3ccc(C(N)=O)cc3)c2c1)c1ccc(C#N)cn1`: “faecal Nluc luminescence” 428 a.u. and 54 a.u. and 1290 a.u. and 13000 a.u. and 175 a.u. (Cryptosporidium parvum; UGA1 Nluc, IFN-gamma knockout C57BL/6 mice, faeces; oral, 10 mg/kg daily, 312 h post infection, treatment days 11-17; higher means more parasites).
For `O=[N+]([O-])c1ccc(C2=[N+]([O-])c3ccccc3N3CCCN=C23)cc1`, the MIC50 was at most 0.06 µg/mL (Prevotella spp.; bacterial growth).
`COc1cc(C(SC(C)C)SC(C)C)ccc1OCCNS(=O)(=O)c1ccc(Br)cc1` has an EC50 of 183 ± 3.2 µg/mL (Tobacco mosaic virus; curative activity; plant in vivo).
`CCOC(=O)C1(Cc2cc(OC)cc(OC)c2)Oc2cc(F)ccc2N(Cc2cc(OC)cc(OC)c2)C1=O` (centres unmarked) gave an inhibition of 63.4 ± 1.51% (Eclipta prostrata; fresh weight, greenhouse postemergence; postemergence, 150 g ai/ha, 21 days).
`CCc1nn(C)c2nc(-c3ccc(C(=O)O)cc3)nc(NCc3ccccc3)c12` gave a parasite number of 93.8% and 74.4% and 90.8% (Cryptosporidium parvum; HCT-8; EC50, 72 h; baseline: DMSO control).
The EC50 of `COc1cc(C(SC(C)C)SC(C)C)ccc1OCCNS(=O)(=O)c1ccc(C)cc1` is reported as 567.9 ± 4.6 µg/mL (Tobacco mosaic virus; protective activity; plant in vivo).
For `CCOC(=O)C1(Cc2cc(F)cc(F)c2)Oc2cc(F)ccc2N(Cc2cc(F)cc(F)c2)C1=O` (centres unmarked), the inhibition was 53.5 ± 3.42% (Eclipta prostrata; fresh weight, greenhouse postemergence; postemergence, 150 g ai/ha, 21 days).
`COc1cc(C(SC(C)C)SC(C)C)ccc1OCCNS(=O)(=O)c1ccc(Cl)cc1` gave an EC50 of 250 ± 3.5 µg/mL (tobacco mosaic virus; protective activity; in vivo plant).
The inhibition of `CCOC(=O)C1(Cc2cc(F)c(F)c(F)c2)Oc2cc(F)ccc2N(Cc2cc(F)c(F)c(F)c2)C1=O` (centres unmarked) is reported as 61.3 ± 3.17% (Eclipta prostrata; fresh weight, greenhouse postemergence; postemergence, 150 g ai/ha, 21 days).
With `C[C@H](NC(=O)[C@@H](O)c1cc(F)cc(F)c1)C(=O)N[C@@H]1C(=O)N(C)c2ccccc2-c2ccccc21` the EC50 was 3 nM (dengue virus type 2; viral replication, Renilla luciferase reporter virus; Huh-7.5.1; 48 h).
`C[N+]1=C2C(c3ccc([N+](=O)[O-])cc3)=[N+]([O-])c3ccccc3N2CCC1` gave an MIC50 of 0.25 µg/mL (Parabacteroides distasonis and Bacteroides spp.; bacterial growth).
With `CCOC(=O)C1(Cc2ccccc2)Oc2cc(OC)ccc2N(Cc2ccccc2)C1=O` (centres unmarked) the inhibition was 57.3 ± 2.34% (Eclipta prostrata; fresh weight, greenhouse postemergence; postemergence, 150 g ai/ha, 21 days).
`[O-][N+]1=C(c2ccccc2)C2=NCCCN2c2ncccc21` gave an MIC90 of at most 0.06 µg/mL (Parabacteroides distasonis and Bacteroides spp.; bacterial growth).
With `CC[C@H](C)[C@H](NC(=O)[C@H](C)NC(=O)CNC(=O)[C@H](C)NC(=O)[C@H](CCCCN)NC(=O)[C@H](CO)NC(=O)[C@H](C)NC(=O)[C@H](CCSC)NC(=O)CN)C(=O)N[C@@H](C)C(=O)NCC(=O)N[C@@H](CCCCN)C(=O)N[C@H](C(=O)N[C@@H](C)C(=O)N[C@@H](CCCCN)C(=O)N[C@H](C(=O)N[C@@H](C)C(=O)N[C@@H](CC(C)C)C(=O)N[C@@H](CCCCN)C(=O)N[C@@H](C)C(=O)N[C@@H](CC(C)C)C(N)=O)C(C)C)[C@@H](C)CC` the combination index was 0.75 (Escherichia coli; 3538 wild type; added: nalidixic acid).
For `Cc1ccc(N2CC3CC(C2)N3C)cc1C(=O)NC1(c2ccc3c4c(cccc24)C(=O)N3C)CC1`, the inhibition was 0% (Human coronavirus NL63; viral replication; 100 pM).
With `CCOC(=O)C1(Cc2ccccc2C#N)Oc2cc(F)ccc2N(Cc2ccccc2C#N)C1=O` (centres unmarked) the inhibition was 58.4 ± 2.19% (Echinochloa crus-galli; fresh weight, greenhouse postemergence; postemergence, 150 g ai/ha, 21 days).
For `CN[C@H](CC(C)C)C(=O)N[C@H]1C(=O)N[C@@H](CC(N)=O)C(=O)N[C@H]2C(=N)N[C@H]3C(=O)N[C@H](C(=O)N[C@H](C(=O)O)c4cc(O)cc(O)c4-c4cc3ccc4O)[C@H](O)c3ccc(c(Cl)c3)Oc3cc2cc(c3O)Oc2ccc(cc2Cl)[C@H]1O`, the accumulation increase was 14 fold (Enterococcus faecium; ATCC BAA-2317 VanA; 30 µg/mL; baseline: no antibiotic).
For `CNCCO.O=C(O)C(Cl)Cl`, the herbicidal inhibition was 5% (Eleusine indica; 15 mg/mL, 21 days, post-emergence, greenhouse).
`CCCSC(SCCC)c1ccc(OCCNS(=O)(=O)c2ccc(Br)cc2)c(Cl)c1` has an EC50 of 495.3 ± 1.8 µg/mL (Tobacco mosaic virus; inactivation activity; plant in vivo).
`CC(O)CN(CC(C)O)CC(C)O.O=C(O)C(Cl)Cl` (centres unmarked) has a herbicidal inhibition of 0% (Eclipta prostrata; 15 mg/mL, 21 days, pre-emergence, greenhouse).
`C[N+]1=C2C(c3ccc(Cl)cc3)=[N+]([O-])c3ccccc3N2CCC1` has an MIC50 of 4 µg/mL (Prevotella spp.; bacterial growth).
`CCCSC(SCCC)c1ccc(OCCNS(=O)(=O)c2cccc(C(F)(F)F)c2)c(OC)c1` gave an EC50 of 495 ± 2.3 µg/mL (Tobacco mosaic virus; inactivation activity; plant in vivo).
The adult length of `C[C@H]1O[C@@H](O[C@H]2CC[C@@]3(C)[C@H](C2)C[C@@H]2O[C@]24[C@@H]3C[C@@H](O)[C@]2(C)[C@@H](C3=CC(=O)OC3)CC[C@@]24O)[C@H](O)[C@H](O)[C@@H]1O[C@@H]1O[C@H](CO)[C@@H](O)[C@H](O)[C@H]1O` is reported as 10.1 mm (Oncopeltus fasciatus; diet, concentration not given).
With `[O-][N+]1=C(c2ccc(Cl)cc2)C2=NCCCCN2c2ccccc21` the MIC50 was 0.5 µg/mL (≈ 1.53 µM) (Prevotella spp.; bacterial growth).
`FC(F)(F)c1cccc(CNc2nc(NC3CCN(Cc4ccccc4)CC3)c3nc[nH]c3n2)c1` — result for “mRNA fold change”: 1.16 (Cryptococcus neoformans; RNA-seq, refers to: CNAG_05329; 48 µg/mL, 3 h; baseline: untreated).
`COc1ccc(C2=[N+]([O-])c3ccccc3N3CC(C)(C)CN=C23)cc1` has an MIC50 of 0.25 µg/mL (≈ 0.745 µM) (Prevotella spp.; bacterial growth).
The inhibition of `O=C(NNc1ccccc1)c1nnc(C23CC4CC(CC(C4)C2)C3)o1` is reported as 76.3% (Sclerotinia sclerotiorum; microbial growth; 50 µg/mL).

Repeated from above:
With `Cc1ccc(S(=O)(=O)NCCOc2ccc(C(SC(C)C)SC(C)C)cc2Cl)cc1` the EC50 was over 2500 µg/mL (tobacco mosaic virus; curative activity; in vivo plant).
For `C[N+]1=C2C(c3ccccc3)=[N+]([O-])c3ccccc3N2CCC1`, the MIC90 was 8 µg/mL (Prevotella spp.; bacterial growth).
`CN(C(=O)c1ccn2ncc(-c3ccc(C(N)=O)cc3)c2c1)c1ccc(C#N)cn1`: “faecal Nluc luminescence” 428 a.u. and 54 a.u. and 1290 a.u. and 13000 a.u. and 175 a.u. (Cryptosporidium parvum; UGA1 Nluc, IFN-gamma knockout C57BL/6 mice, faeces; oral, 10 mg/kg daily, 312 h post infection, treatment days 11-17; higher means more parasites).
For `O=[N+]([O-])c1ccc(C2=[N+]([O-])c3ccccc3N3CCCN=C23)cc1`, the MIC50 was at most 0.06 µg/mL (Prevotella spp.; bacterial growth).
`COc1cc(C(SC(C)C)SC(C)C)ccc1OCCNS(=O)(=O)c1ccc(Br)cc1` has an EC50 of 183 ± 3.2 µg/mL (Tobacco mosaic virus; curative activity; plant in vivo).
